Experimental data pooled from the literature.
Parts stem from different laboratories: compare values within a part only. Substitutions count along the parent as printed.

Block 1 — method: protein-binding microarray; form: double-stranded DNA, one strand shown; medium: in vitro; concentration: 940 nM top; setting: 60-bp whole probe; with: salmon DNA 0.4 mg/ml; baseline: random background probes; reading: higher = stronger binding; shared flanks, not repeated: GCCTAGCAC … GTCTTGATTCGCTTGACGCTGCTG
Target: Interferon regulatory factor 5, full length, phosphomimetic (IRF5, Homo sapiens, UniProt Q13568-2, residues 1-514, S451D/S453D/S456D/S462D)
For `CCTGGACGGGAGTGCGGTGCGTGCTAG`, “fitted relative affinity” read 0.281 z-score.
`AAGGTAGCACTTCACAGCAAGTGCTAG` — result for “fitted relative affinity”: -0.0348 z-score.
For `TCACCTTTTATATTGTAACTGTGCTAG`, “fitted relative affinity” read 1.48 z-score.
Under “fitted relative affinity”, `GACGGTTTCCTAATGCTGACGTGCTAG` is recorded as 0.728 z-score.
Under “fitted relative affinity”, `GACGGACTGGGAACTGGGGACGTGCTA` is recorded as -0.565 z-score.
Under “fitted relative affinity”, `GACGGTTTACTACTGCTGACGTGCTAG` is recorded as -0.144 z-score.
`TTAGGTATCGACTCTCGGTTAGTGCTA`: “fitted relative affinity” 5.95 z-score.
Under “fitted relative affinity”, `GTGGGACCCATGAACACTCAGTGCTAG` is recorded as -0.491 z-score.

Block 2 — target: CCNF, cyclin fold, Cln2 fusion (human); method: yeast growth competition, sequencing; medium: yeast; setting: strong parent motif; baseline: not given; reading: higher = stronger binding
Parent: MICAL3 docking peptide (human); LQLRRQLSFSEDS
Under “normalised enrichment score”, `LQLMRQLSFSEDS [R4M]` is recorded as 1.69.
For `LQHRRQLSFSEDS [L3H]`, “normalised enrichment score” read 2.41.
`LQLRRQLSMSEDS [F9M]`: “normalised enrichment score” 1.05.
For `LQLRRQCSFSEDS [L7C]`, “normalised enrichment score” read -0.114.
Under “normalised enrichment score”, `LQLRRQVSFSEDS [L7V]` is recorded as 0.434.
Under “normalised enrichment score”, `LQLRRQLSFSADS [E11A]` is recorded as 6.11.
`LQLRRQLDFSEDS [S8D]`: “normalised enrichment score” 6.22.
Under “normalised enrichment score”, `LQLCRQLSFSEDS [R4C]` is recorded as 5.2.

Block 3 — method: RNA Bind-n-Seq; form: RNA; medium: in vitro; concentration: 365 nM; baseline: no-protein control; reading: higher = stronger binding
Target: RNA binding protein fox-1 homolog 2, RRM domain, GST-SBP tag (RBFOX2, Homo sapiens, UniProt O43251-10, residues 100-194)
Setting: natural RNA segment, single round, ends assumed
Construct (chain): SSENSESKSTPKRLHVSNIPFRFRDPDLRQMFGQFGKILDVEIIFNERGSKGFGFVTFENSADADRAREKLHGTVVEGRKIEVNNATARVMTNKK
Under “RBNS enrichment (R)”, `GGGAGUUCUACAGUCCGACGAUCAGUACAAAGACACGAUUACAUAACCAGGUUCAAGGGGGACUUCUGCUUAUCAGUGCUAGGGAUGGGACCCAGGACCUCACCCACGCCAGGCUGAGCUAUGUCCCCAACCCUGGAAUUCUCGGGUGCCAA` is recorded as 0.597.
Under “RBNS enrichment (R)”, `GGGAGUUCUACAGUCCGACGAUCCCUUAAACAGCUAGCAUGAAACAGUUUUGUCGUGGCCACCAGGCUUCUGUGGGAACAGUCCUUCUCUGGCUGGCUAGCUAGGCACAGCUACGGCACUGGAAAGAGUAGAGUGGAAUUCUCGGGUGCCAA` is recorded as 4.85.
`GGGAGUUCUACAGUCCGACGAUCCACAAGGAGGCAUGCUUGCCCUUCUCCUUGGGAUGGCAGCUGGUGAGCUGAGGAGGCUGGCCUAGAGGAAAAAAGGCAGCAGACAGUGAAGAGGCCUUCCUCCCUCCCUGUGGAAUUCUCGGGUGCCAA` — result for “RBNS enrichment (R)”: 11.
For `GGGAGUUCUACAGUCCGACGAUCCCUCUUGGAUACUCUGCCCAUUGAGUUCUCGGUGGUACCAGCUACAUGCCAGUUCCUGAGCAUCCUUUAUGUGCAUUUGCAUUCUCAGUGGUCCUGCCUGUAUGCUGGUUUGGAAUUCUCGGGUGCCAA`, “RBNS enrichment (R)” read 1.38.
`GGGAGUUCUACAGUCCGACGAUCUUUUUAAAACUUUGAUUGCAUGAUGUAUUUUUUUUUUAGAAAGUUAUUGUUUGAGAAUAAUGUCUUUUUAUACCAGGAAAAUAGUUAUCCUGAAUGACGUUGAAAACUCCUGGAAUUCUCGGGUGCCAA`: “RBNS enrichment (R)” 15.8.
`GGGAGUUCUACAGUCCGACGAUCGAUGUCCUCUGGUCUUUUCCAUCUUCGCUUUCUAUGACUGUGGAAUAAAUGUUCAGACAGAAACUUCCUUUCCGUUGUGUUGCUGGCAUUCACUAGGGAUUAGAAUACUUUGGAAUUCUCGGGUGCCAA`: “RBNS enrichment (R)” 0.501.
For `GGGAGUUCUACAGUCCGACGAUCAUUGGUUUGAGGUUUUCUGACACUAAUUAAAAGAAAAAUUAGAUCAGGGUGUGGUAGCAAAUGCCUAUAAUCCCAGCAUUUAGGAGGCAGGGAUAGGAAUCUCAGGUUCAUGGAAUUCUCGGGUGCCAA`, “RBNS enrichment (R)” read 0.5.
For `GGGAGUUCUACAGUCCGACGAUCAUUAGUGGGGGACUGAGUUCAGGUUACCAGAACCAGUACCUCAGUAUUCUUUUUCAACAUGUAGGGCAAGAGGAUGAAGGAAGGGGCUAUCCUGGGACCUCCCCAGCCCAUGGAAUUCUCGGGUGCCAA`, “RBNS enrichment (R)” read 0.29.

Mixed results
With `PhoQ, residues 284 288 289 292 302 303 SLGVVW` the fold induction was 23.3 (PhoP, residues 12 14 15 18 19 LHTVM (Escherichia coli, UniProt P23836); Sort-seq, measured: YFP reporter; E. coli; PhoQ-PhoP variant library, with: 10 µM Mg2+; baseline: high Mg2+ state, higher = stronger signaling).

Repeated from above (block 1):
For `TCACCTTTTATATTGTAACTGTGCTAG`, “fitted relative affinity” read 1.48 z-score.
Under “fitted relative affinity”, `GACGGTTTCCTAATGCTGACGTGCTAG` is recorded as 0.728 z-score.
